# Experimental data of several laboratories.
# Parts stem from different laboratories: compare values within a part only.

# Set 1
# Target: RNA binding protein fox-1 homolog 2, RRM domain, GST-SBP tag (RBFOX2, Homo sapiens, UniProt O43251-10, residues 100-194)
# Method: RNA Bind-n-Seq
# Molecule type: RNA
# Sample: in vitro
# Concentration: 365 nM
# Notes: natural RNA segment, single round, ends assumed
# Baseline: no-protein control
# Direction: higher = stronger binding
# Constant ends, left off below: GGGAGUUCUACAGUCCGACGAUC … UGGAAUUCUCGGGUGCCAA
# Residues (chain): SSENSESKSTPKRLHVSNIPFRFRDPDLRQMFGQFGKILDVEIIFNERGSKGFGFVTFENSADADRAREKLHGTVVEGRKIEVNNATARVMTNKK
Sequence,RBNS enrichment (R)
CCACCUUUAGUGUUUGAGCUUUGUCAUUGCUUGUCUCCCUGGCAUGUGCCAGUUAUAGACUGUCCAGCAUCCAAGACGUUUCGGUUAUGUCGGGUCCUCAGAUCGCCUCU,0.347
GAAAACACCCAUUUUGAUACAAUGUAAACGUUCGUGUUCACCCUUGGAUACAUGUUGAAAGAGCUCUUUGGUACACGGAAGUGACAUCUUUGGGGUCAGUGUUACGAGGU,0.538
GGCUUUGUUUCAGCCUGGAAGUGAGGGCUCUGGAGAUGGAGAUAGGAGCCAUAAGCUCUCCUUCAGACGGUGAGGCGGCUCCUGCCUCCUGCUACUGAAAUCUGCAGACA,0.439
UCUAUAUUGUGAUACAGAAACUGUCAACUUUUCGCUCUGUGAACUGUUUUUAAGACACUUUGAUGUUUUUAUGGGGUGGUUGGUAACCUCUCAGCCUAGCCUCUCCUCAC,0.401
AGGACUAACCAGGCAGAAGCCAUUCACAGGACAGGCUCUGACGGGCUGUCACUGGCUGCUCGAGUCUCCAGCGUAAGCGCUUCACUUUGACUUAGGGUCAUAGUACGAGG,0.314
UAAAUUGUCUUUUUAAAUUGCUAACAAGCAUCAGUUAUAUUUGAGCUUCAUUUUUCUUUUAUCCUGUCUGUCCUAAUAAAAACAAAAAUGGCCAAAAAGUGGAGAGGAAA,1.04
GAGAGAGAAUGAGUCCUCCCUCAGUUGCUGCCUCUCACUCCUGGUGACAUGGUGCCACCCAAGCUUGGCCAUUCCCACAUAGUCAGCAAGCUGAGGACCCAAAGUUGGAC,0.368
GUUUUAGCAUUGUCUUGUUCUGUCCCUUCCACUUCUAACUCCACUGGCUCCAUGAUUCUCUGAGUGGUGGUUCCUUUGCACCCUGUAGAUGUUCUAGGAUAGUUGAUGCA,14.9

# Set 2
# Target: UBE2L3 UBC core domain (UniProt P68036)
# Sequence of UniProt P68036 (whole entry, looked up): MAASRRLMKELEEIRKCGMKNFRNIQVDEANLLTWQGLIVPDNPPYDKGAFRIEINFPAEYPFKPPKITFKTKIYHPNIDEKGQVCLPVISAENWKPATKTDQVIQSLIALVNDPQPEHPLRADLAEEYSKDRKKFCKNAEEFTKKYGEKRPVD
# Method: yeast two-hybrid
# Sample: yeast
# Notes: mostly zero background
# Baseline: not given
# Direction: higher = stronger interaction
# B1: TRIM68 RING domain (UniProt Q6AZZ1); chain LVEAIVEEVACPICMTFLREPMSIDCGHSFCHSCLSGLWEIPGESQNWGYTCPLCRAPVQPRNLRP
# B2: TRIM28 RING domain (UniProt Q13263); chain GAEALELLEHCGVCRERLRPEREPRLLPCLHSACSACLGPAAPAAANSSGDGGAAGDGTVVDCPVCKQQCFSKDIVE
# B3: PJA2 RING domain (UniProt O43164); chain DHTAIGQEQCCPICCSEYIKDDIATELPCHHFFHKPCVSIWLQKSGTCPVCRRHFPPAVIEA
# B4: RFPL3 RING domain (UniProt O75679); chain MAALFQEASSCPVCSDYLEKPMSLECGCTVCLKCINSLQKEPHGEDLLCCCCSMVSQRNKIRP
Sequence,lacZ reporter activity
B1 (TRIM68 RING domain),0
B2 (TRIM28 RING domain),0
PLRRLQEEKLCKICMDRHIAVVFIPCGHLVTCKQCAEAVDRCPMCSAVIDFKQRVF (BIRC8 RING domain (UniProt Q96P09)),0
GSEEEEIPFRCFICRQAFQNPVVTKCRHYFCESCALEHFRATPRCYICDQPTGGIFNPA (RNF113B RING domain (UniProt Q8IZP6)),0
B3 (PJA2 RING domain),0
KITELNPHLMCALCGGYFIDATTIVECLHSFCKTCIVRYLETNKYCPMCDVQVHKTRPLL (PCGF2 RING domain (UniProt P35227)),0
B4 (RFPL3 RING domain),0

# Set 3
# Target: Histone acetyltransferase KAT6A, winged helix 2, GST fusion (KAT6A, Homo sapiens, UniProt Q92794, residues 85-181)
# Method: protein binding microarray
# Molecule type: double-stranded DNA, one strand shown
# Sample: in vitro
# Concentration: not given
# Notes: 8-mer, flanks averaged, mean of 2 arrays, mostly near background
# Baseline: not given
# Direction: higher = stronger binding
# Target sequence (chain): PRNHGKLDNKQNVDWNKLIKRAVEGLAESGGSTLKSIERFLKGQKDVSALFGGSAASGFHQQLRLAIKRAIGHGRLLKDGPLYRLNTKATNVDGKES
Sequence,E-score
ACATTGGT,-0.0603
ACTTCTAG,-0.0964
CCTCATAG,-0.08
AAGTGCTC,-0.107
AATTCCGT,-0.0778
ATCCGAAT,0.0879
ATCCCAAG,0.0605
CAACGTTC,-0.207
AAGATCAC,-0.0996
CGACTCTC,-0.147
GCCACCCC,0.0343
CTTTACAA,0.0115
GCGCAAGA,0.106
GCATTTCC,0.0982
CCACGAAC,0.17
CTAAGCTC,0.0679

# Set 4
# Target: Ras GTPase-activating protein-binding protein 1, C-terminal RGG region (G3BP1, Homo sapiens, UniProt Q13283)
# Sequence of UniProt Q13283 (whole entry, looked up): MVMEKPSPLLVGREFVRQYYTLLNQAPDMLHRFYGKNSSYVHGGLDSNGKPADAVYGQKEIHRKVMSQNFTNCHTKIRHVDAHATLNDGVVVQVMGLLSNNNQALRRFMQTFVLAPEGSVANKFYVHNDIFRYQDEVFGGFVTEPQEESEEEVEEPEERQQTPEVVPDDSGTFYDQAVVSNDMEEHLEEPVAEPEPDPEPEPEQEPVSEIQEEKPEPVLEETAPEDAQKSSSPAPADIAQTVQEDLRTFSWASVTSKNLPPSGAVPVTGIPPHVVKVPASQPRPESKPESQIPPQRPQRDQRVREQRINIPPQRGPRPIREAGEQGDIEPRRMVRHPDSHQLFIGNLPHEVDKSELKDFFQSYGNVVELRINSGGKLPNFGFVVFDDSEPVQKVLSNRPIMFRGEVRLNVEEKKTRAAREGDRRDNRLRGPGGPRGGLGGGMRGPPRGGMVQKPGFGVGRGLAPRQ
# Method: RNA Bind-n-Seq
# Molecule type: RNA
# Sample: in vitro
# Concentration: 1 µM
# Notes: whole 134-nt RNA, ends assumed
# Together with: 150 mM KCl
# Baseline: input library
# Direction: higher = stronger binding
# Constant ends, left off below: GGGAGUUCUACAGUCCGACGAUC … UGGAAUUCUCGGGUGUCAAGG
Sequence,log2 enrichment
AAGUCCUGUGCUACACAUCGUAUGUACCGAAUCAAAUUUUUAAAUUUAAAUUUAAAAAAGUAUUAUGUUACGCCGUUCGGAUCUGCACUU,-2.3
GCAGGAAGUAAAAACAAAUGGAAAUGCUUCGGAUAGUGGCAGGGGUGGGGGUUGCUAAGGAAAGGGUGGGAUGGGAGUGGCUAAAGAGUU,1.59
AGUCCUGUGCUACACAUCGUAUGUACCGAAUCGGGGCCCGGGGCCCGGGGCCCGGGGAAAGUAUUAUGUUACGCCGUUCGGAUCUGCACU,-1.91
AAGUCCUGUGCUACACAUCGUAUGUACCGAAUCGGGUUUUUGGGUGGGUUUUUGGGAAAGUAUUAUGUUACGCCGUUCGGAUCUGCACUU,1.02
CAAGUCCUGUGCUACACAUCGUAUGUACCGAAUCGGGGAAAGGGAAAGGAAAGGGGAAAGUAUUAUGUUACGCCGUUCGGAUCUGCACUU,0.179
UGGCCCUGGUGGCAUGCGGGGAGGAAGAGGUGGCCUCAUGGAUCCUGGUGGUCCCGGUGGAAUGUUCAGAGGUGGCCGUGGUGGAGACAG,2.38
UGGAGGAGCCAUAGAAUAUUAAGGAUGAAUUCAGGAAGGCCUGAGACCAUGGAAAACUUGCCUGCUCUCUACACUAUUUUCCAAGGAGAG,-1.09
UGGCCCUGGUGUCAUGCGGGGAGGAAGAGGUGGCCUCAUGGAUCGUGGUGGUCCCGGUGGAAUGUUCAGAGGUGGCCGUGGUGGAGACAG,2.01
CUCAAGUCCUGUGCUACACAUCGUAUGUACCGAAUCGGGAGGGUGGGAAAGGGAAAGUAUUAUGUUACGCCGUUCGGAUCUGCACUUCCA,1.75

# Excerpt of the above (set 1):
Sequence,RBNS enrichment (R)
GAAAACACCCAUUUUGAUACAAUGUAAACGUUCGUGUUCACCCUUGGAUACAUGUUGAAAGAGCUCUUUGGUACACGGAAGUGACAUCUUUGGGGUCAGUGUUACGAGGU,0.538
GGCUUUGUUUCAGCCUGGAAGUGAGGGCUCUGGAGAUGGAGAUAGGAGCCAUAAGCUCUCCUUCAGACGGUGAGGCGGCUCCUGCCUCCUGCUACUGAAAUCUGCAGACA,0.439
